Assay results from different studies.
Each line is one published result; not all experiments were run side by side. ± gives the spread as reported. Converted amounts (≈) assume the structure as drawn.
Cell line: Vero

Structure (SMILES) | method | tested at | time | relative to | quantity | value
CCCCCCC#Cc1cncc(-c2nnc(SCc3ccc(C#N)cc3)n2C)c1 |  |  |  | Vero CC50 over Mtb IC50 | selectivity index | > 3.7
O=C(NC1CCCCCCC1)c1cc(-c2ccc(Cl)cc2Cl)c[nH]1 |  |  | 48 h |  | IC50 | 31.8 µg/mL (≈ 87.1 µM)
CCCCCCC#Cc1cncc(-c2nnc(SCc3ccc([N+](=O)[O-])o3)n2C2CC2)c1 |  |  |  | Vero CC50 over Mtb IC50 | selectivity index | 165
C=C[C@]12CN(C)[C@@H]3[C@H]4CO[C@H](C[C@H]41)[C@]1(C(=O)Nc4ccccc41)[C@@H]32 | CCK-8 | up to 100 µM | 24 h |  | viability | no effect
N.N.[Cl][Pt][Cl] | MTT | 100 µM | 24 h |  | growth reduction | 7.13 ± 0.54%
O=C(NC12CC3CC(CC(C3)C1)C2)c1cc(-c2ccc(F)nc2F)c[nH]1 |  |  | 48 h |  | IC50 | > 64 µg/mL
C/C=C1\CN(C)[C@H]2C[C@@]3(C(=O)N(OC)c4ccccc43)[C@H]3C[C@@H]1[C@@H]2CO3 | CCK-8 | up to 100 µM | 24 h |  | viability | no effect
O=C(NC1CCCCCCC1)c1cc(-c2ccc(F)nc2F)c[nH]1 |  |  | 48 h |  | IC50 | > 64 µg/mL
CCCCCCC#Cc1cncc(-c2nnc(SCc3ccc(Cl)cc3)n2C2CC2)c1 |  |  |  | Vero CC50 over Mtb IC50 | selectivity index | 4.8

A few entries again:
Structure (SMILES) | method | tested at | time | relative to | quantity | value
O=C(NC12CC3CC(CC(C3)C1)C2)c1cc(-c2ccc(F)nc2F)c[nH]1 |  |  | 48 h |  | IC50 | > 64 µg/mL
